Published values gathered from unrelated publications.
Each line is one published result; not all experiments were run side by side. Numbers after ± are the reported error.
Organism: Plasmodium falciparum

SMILES = CC[C@H](C)[C@H](NC(=O)[C@H](C)NC(=O)[C@@H]1CCCN1C(=O)C(C)(C)NC(=O)[C@H](CC(C)C)NC(=O)[C@H](CCC(N)=O)NC(=O)C(C)(C)NC(C)=O)C(=O)NC(C)(C)C(=O)N1CCC[C@H]1C(=O)N[C@](C)(CC)C(=O)N[C@@H](CC(C)C)C(=O)NC(C)(C)C(=O)N1CCC[C@H]1C(=O)N[C@H](CO)CC(C)C; observed = parasite growth; strain = DD2; setting = drug-resistant strain; EC50 = 630 nM
SMILES = Cc1cc(Nc2cc(F)c(C(F)(F)F)c(F)c2)n2ncnc2n1; observed = parasite growth; technique = [3H]hypoxanthine uptake; strain = 3D7; EC50 = ~200 nM
SMILES = CCC(=O)CCCCC[C@@H]1NC(=O)[C@H]2CCCN2C(=O)[C@H](C(C)CC)NC(=O)[C@H](Cc2cn(OC)c3ccccc23)NC1=O (stereo partly shown); observed = parasite growth; technique = SYBR Green I; strain = 3D7, drug-sensitive; time = 72 h; EC50 = 410 ± 50 nM
SMILES = CC[C@H](C)[C@H](NC(=O)C(C)(C)NC(=O)[C@H](CCC(N)=O)NC(=O)[C@H](C)NC(=O)C(C)(C)NC(=O)[C@H](C)NC(=O)C(C)(C)NC(=O)[C@H](C)NC(=O)C(C)(C)NC(C)=O)C(=O)NC(C)(C)C(=O)NCC(=O)N[C@@H](CC(C)C)C(=O)NC(C)(C)C(=O)N1CCC[C@H]1C(=O)N[C@H](C(=O)NC(C)(C)C(=O)N[C@](C)(CC)C(=O)N[C@@H](CCC(N)=O)C(=O)N[C@@H](CCC(N)=O)C(=O)N[C@H](CO)Cc1ccccc1)C(C)C; observed = parasite growth; strain = DD2; setting = drug-resistant strain; EC50 = 520 nM
SMILES = Clc1ccc2nc(-c3ccccc3)cc(NCCCCN3CCOCC3)c2c1; observed = parasite growth; technique = SYBR Green; strain = DD2; time = 72 h; setting = drug-resistant strain, blood stage; EC50 = > 400 nM
SMILES = Cc1[nH]c2ccccc2c(=O)c1-c1ccc(Oc2ccccc2)cc1; observed = parasite growth; technique = SYBR Green; strain = TM90; time = 72 h; setting = drug-resistant strain, blood stage; EC50 = 10 nM
SMILES = CN1CCN(CCNc2cc(/C=C/c3ccc(F)cc3)nc3ccc(Cl)cc23)CC1; observed = parasite growth; technique = SYBR Green; strain = DD2; time = 72 h; setting = drug-resistant strain, blood stage; EC50 = ≤ 15 nM
SMILES = O=C(NC1CCCC1)[C@@H]1CCCCOc2cccc(c2)C[C@H](N2CCCC2=O)C(=O)N[C@@H](CCN2CCOCC2)C(=O)N1; observed = asexual blood stage growth; strain = W2; time = 72 h; EC50 = 9 nM
SMILES = Cc1cc(Nc2ccc(S(F)(F)(F)(F)F)cc2)n2nc(C(C)(F)F)nc2n1; observed = parasite growth; strain = Dd2 DHODH C276F clone CL2; EC50 = 390 ± 230 nM
SMILES = C[C@@H]1NC(=O)[C@H](CCCCCC(=O)[C@@H]2CO2)NC(=O)[C@H]2CCCN2C(=O)[C@H](Cc2ccccc2)NC1=O; observed = parasite growth; technique = SYBR Green; strain = DD2; setting = drug-resistant strain, blood stage; EC50 = 10 nM
SMILES = CC[C@H](C)[C@H](NC(=O)[C@H](CO)NC(=O)[C@@H]1CCCN1C(=O)C(C)(C)NC(=O)[C@H](CC(C)C)NC(=O)[C@H](CC(N)=O)NC(=O)C(C)(C)NC(C)=O)C(=O)NC(C)(C)C(=O)N1CCC[C@H]1C(=O)N[C@](C)(CC)C(=O)N[C@@H](CC(C)C)C(=O)NC(C)(C)C(=O)N1CCC[C@H]1C(=O)N[C@H](CO)CC(C)C; observed = parasite growth; strain = DD2; setting = drug-resistant strain; EC50 = 520 nM
SMILES = COc1ccc2nc(/C=C/c3ccncc3)cc(NCCN(C)C)c2c1; observed = parasite growth; technique = SYBR Green; strain = DD2; time = 72 h; setting = drug-resistant strain, blood stage; EC50 = 33.6 nM
SMILES = C[C@H]1[C@@H](CC(=O)NCCCC(=O)N[C@@H](CC(=O)NC(C)(C)C)C(=O)NCCNC(=O)c2cc(-c3ccccc3F)ccc2F)O[C@@H]2O[C@@]3(C)CC[C@H]4[C@H](C)CC[C@@H]1[C@@]24O3; observed = parasite growth; strain = Dd2 beta6 A117D, proteasome inhibitor-resistant; medium = erythrocytic stage; time = 72 h; EC50 = 246 ± 44.5 nM

Repeated from above:
SMILES = Clc1ccc2nc(-c3ccccc3)cc(NCCCCN3CCOCC3)c2c1; observed = parasite growth; technique = SYBR Green; strain = DD2; time = 72 h; setting = drug-resistant strain, blood stage; EC50 = > 400 nM
